Results gathered from unrelated publications.
A part holds a random share of what one study measured.
Chain of UniProt P50406 (whole entry, looked up): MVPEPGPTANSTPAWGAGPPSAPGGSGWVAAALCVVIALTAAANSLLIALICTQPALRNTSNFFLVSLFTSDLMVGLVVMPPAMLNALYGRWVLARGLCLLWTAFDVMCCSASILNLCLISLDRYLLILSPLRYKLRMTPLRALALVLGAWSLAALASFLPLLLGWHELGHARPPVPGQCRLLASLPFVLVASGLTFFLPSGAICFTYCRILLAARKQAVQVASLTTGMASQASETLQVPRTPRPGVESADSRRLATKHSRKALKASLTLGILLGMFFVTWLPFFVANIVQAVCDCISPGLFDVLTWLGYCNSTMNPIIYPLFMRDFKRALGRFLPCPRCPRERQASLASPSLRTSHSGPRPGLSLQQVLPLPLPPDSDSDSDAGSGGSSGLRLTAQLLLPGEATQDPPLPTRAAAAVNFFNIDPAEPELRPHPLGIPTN
Chain of UniProt P08913 (whole entry, looked up): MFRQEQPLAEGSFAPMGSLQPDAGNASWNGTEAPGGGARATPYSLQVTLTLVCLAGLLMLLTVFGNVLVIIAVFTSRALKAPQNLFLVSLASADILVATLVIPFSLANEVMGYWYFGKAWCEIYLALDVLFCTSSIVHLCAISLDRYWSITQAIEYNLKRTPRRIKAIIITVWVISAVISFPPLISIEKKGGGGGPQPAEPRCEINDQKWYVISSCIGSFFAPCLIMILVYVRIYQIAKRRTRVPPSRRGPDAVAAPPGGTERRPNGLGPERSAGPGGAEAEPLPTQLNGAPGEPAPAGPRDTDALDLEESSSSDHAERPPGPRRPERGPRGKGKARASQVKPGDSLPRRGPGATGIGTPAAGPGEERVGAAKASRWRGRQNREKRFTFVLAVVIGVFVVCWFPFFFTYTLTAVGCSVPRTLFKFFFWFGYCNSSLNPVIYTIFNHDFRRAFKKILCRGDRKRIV
Chain of UniProt P35368 (whole entry, looked up): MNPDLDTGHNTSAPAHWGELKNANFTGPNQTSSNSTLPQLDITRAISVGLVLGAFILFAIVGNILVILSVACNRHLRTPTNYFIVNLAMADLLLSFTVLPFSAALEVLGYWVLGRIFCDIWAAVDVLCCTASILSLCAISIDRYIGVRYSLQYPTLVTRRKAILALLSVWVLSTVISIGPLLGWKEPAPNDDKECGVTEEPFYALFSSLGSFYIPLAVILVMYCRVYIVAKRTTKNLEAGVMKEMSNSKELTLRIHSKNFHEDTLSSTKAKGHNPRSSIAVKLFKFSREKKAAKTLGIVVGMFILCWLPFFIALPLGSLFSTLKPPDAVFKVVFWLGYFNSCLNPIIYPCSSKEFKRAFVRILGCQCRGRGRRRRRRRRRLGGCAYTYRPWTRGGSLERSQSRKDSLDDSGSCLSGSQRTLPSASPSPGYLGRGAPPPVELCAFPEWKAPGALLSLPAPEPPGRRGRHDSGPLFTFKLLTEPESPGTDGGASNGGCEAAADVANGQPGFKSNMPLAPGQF
Chain of UniProt Q99720 (whole entry, looked up): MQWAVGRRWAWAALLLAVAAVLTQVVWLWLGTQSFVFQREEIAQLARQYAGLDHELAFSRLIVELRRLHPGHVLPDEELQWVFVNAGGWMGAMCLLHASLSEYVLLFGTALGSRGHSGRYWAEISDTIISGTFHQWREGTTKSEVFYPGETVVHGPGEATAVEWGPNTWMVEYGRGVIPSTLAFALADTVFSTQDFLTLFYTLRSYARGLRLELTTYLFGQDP
Chain of UniProt Q5BJF2 (whole entry, looked up): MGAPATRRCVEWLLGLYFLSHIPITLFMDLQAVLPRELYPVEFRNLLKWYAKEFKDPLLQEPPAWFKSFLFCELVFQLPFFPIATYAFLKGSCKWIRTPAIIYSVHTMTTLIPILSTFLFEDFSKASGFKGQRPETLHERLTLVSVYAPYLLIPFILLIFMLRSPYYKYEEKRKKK
Chain of UniProt P34969 (whole entry, looked up): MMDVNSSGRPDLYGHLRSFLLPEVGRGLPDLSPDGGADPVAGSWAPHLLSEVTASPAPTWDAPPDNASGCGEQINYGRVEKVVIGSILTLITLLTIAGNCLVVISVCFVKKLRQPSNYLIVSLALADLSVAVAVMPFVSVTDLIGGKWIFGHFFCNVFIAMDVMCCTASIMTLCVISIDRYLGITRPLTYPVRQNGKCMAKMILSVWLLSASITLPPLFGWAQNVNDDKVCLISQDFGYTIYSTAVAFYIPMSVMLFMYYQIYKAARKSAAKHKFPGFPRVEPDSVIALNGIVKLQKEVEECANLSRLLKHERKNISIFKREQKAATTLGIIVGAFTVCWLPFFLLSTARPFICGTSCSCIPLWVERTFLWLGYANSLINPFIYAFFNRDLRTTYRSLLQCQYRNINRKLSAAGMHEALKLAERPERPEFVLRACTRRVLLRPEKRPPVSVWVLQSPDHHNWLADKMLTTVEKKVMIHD
Chain of UniProt P35367 (whole entry, looked up): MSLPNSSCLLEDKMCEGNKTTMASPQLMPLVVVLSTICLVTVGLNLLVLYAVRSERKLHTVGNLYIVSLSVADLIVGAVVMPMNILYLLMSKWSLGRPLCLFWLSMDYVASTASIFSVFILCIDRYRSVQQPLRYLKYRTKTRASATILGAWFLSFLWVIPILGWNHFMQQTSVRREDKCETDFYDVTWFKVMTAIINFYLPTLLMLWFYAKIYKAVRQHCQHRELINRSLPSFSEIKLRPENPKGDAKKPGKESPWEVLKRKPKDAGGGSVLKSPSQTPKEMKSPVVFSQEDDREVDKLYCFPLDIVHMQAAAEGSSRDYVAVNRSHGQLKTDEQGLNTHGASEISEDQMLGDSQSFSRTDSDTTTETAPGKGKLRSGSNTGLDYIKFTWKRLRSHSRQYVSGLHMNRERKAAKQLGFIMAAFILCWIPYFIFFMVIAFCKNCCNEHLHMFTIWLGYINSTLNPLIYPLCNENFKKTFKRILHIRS
Chain of UniProt P21917 (whole entry, looked up): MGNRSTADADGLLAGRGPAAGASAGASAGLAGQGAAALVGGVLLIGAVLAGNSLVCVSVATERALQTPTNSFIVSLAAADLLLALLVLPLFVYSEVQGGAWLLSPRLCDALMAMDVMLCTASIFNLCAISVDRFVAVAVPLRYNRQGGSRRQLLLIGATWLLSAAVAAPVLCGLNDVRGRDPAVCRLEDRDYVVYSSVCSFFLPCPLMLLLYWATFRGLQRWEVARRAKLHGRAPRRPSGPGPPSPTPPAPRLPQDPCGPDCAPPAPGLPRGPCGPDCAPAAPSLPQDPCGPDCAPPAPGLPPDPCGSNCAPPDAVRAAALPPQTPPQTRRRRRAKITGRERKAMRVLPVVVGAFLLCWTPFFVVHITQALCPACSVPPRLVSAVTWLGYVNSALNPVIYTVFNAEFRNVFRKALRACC
Chain of UniProt P08172 (whole entry, looked up): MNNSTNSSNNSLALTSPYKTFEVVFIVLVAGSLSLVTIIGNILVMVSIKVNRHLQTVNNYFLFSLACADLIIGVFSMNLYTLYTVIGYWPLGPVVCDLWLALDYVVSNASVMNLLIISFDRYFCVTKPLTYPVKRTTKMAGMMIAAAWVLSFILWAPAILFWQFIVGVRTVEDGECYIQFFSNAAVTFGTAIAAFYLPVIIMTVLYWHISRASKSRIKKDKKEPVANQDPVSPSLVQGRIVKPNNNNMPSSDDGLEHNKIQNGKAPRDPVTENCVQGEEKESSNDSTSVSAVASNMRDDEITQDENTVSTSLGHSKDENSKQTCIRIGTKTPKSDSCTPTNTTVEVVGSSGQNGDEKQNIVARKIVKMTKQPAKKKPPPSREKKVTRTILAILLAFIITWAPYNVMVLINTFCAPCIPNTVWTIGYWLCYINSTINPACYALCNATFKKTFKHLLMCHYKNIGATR

Block 1 — effect on: enzyme activity; mode: inhibitor; concentration: 0.5 µM; baseline: control
Target: Serine/threonine-protein kinase Nek9 (NEK9, Homo sapiens, UniProt Q8TD19)
Chain of UniProt Q8TD19 (whole entry, looked up): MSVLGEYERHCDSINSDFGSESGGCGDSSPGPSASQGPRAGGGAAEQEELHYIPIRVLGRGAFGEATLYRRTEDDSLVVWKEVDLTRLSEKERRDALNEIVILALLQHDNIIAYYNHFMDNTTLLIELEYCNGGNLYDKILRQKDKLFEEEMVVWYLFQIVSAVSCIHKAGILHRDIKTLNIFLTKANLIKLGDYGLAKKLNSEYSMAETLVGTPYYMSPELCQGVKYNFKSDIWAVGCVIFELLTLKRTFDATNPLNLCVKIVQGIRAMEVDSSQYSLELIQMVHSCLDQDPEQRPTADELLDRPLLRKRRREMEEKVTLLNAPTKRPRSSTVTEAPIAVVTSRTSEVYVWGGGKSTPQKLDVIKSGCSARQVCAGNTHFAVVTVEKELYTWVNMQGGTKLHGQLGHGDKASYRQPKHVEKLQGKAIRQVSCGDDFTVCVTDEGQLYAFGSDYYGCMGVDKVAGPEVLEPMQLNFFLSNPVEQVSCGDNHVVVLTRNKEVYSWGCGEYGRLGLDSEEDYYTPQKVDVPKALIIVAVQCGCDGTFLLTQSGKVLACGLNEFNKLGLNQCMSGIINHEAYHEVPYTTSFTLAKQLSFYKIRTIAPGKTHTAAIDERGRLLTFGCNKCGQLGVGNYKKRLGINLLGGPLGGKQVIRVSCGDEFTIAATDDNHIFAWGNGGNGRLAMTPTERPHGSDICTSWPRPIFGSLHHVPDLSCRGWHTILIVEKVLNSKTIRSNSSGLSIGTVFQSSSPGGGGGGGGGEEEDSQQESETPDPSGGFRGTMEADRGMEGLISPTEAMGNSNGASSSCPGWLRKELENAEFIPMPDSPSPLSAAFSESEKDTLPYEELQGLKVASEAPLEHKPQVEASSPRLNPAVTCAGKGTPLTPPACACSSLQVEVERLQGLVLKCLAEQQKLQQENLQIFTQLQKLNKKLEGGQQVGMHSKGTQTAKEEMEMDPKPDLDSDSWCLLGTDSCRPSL
SMILES	remaining activity [%]
O=C(Nc1cccc(Nc2cc(Nc3cccc(C(F)(F)F)c3)ncn2)c1)C1CC1	101
O=C1NC(=O)C(c2cn(CCCO)c3ncccc23)=C1c1cnccn1	93.4
Cn1c2ccccc2c2c3c(c4c5ccccc5n(CCC#N)c4c21)CNC3=O	96.9
O=S(=O)(c1cccc2cnccc12)N1CCCNCC1	95.9
CO[C@H]1C[C@@H]2CC[C@@H](C)[C@@](O)(O2)C(=O)C(=O)N2CCCC[C@H]2C(=O)O[C@H]([C@H](C)C[C@@H]2CC[C@@H](O)[C@H](OC)C2)CC(=O)[C@H](C)/C=C(\C)[C@@H](O)[C@@H](OC)C(=O)[C@H](C)C[C@H](C)/C=C/C=C/C=C/1C	98.2
COc1ccc(C(=O)Nc2sc3c(c2C(N)=O)CCCC3)cc1OC	94.6
Nc1ncnc2n[nH]c(Nc3ccc(F)cc3)c12	97.9
O=C(CCCc1ccc(-c2ccccc2F)cc1)Nc1ccc(O)cc1	92.7
CN(C)c1ccc(C=C2C(=O)Nc3ccccc32)cc1	99.8
Oc1ccc(-c2nc(-c3ccncc3)c(-c3ccc(F)cc3)[nH]2)cc1	99.4
O=c1c2ccccc2[nH]c(=S)n1CCN1CCC(=C(c2ccc(F)cc2)c2ccc(F)cc2)CC1	97
N#CC(C#N)=C(N)/C(C#N)=C/c1ccc(O)cc1	97.9
Cn1sc(=O)n(Cc2ccccc2)c1=O	98.2
Cc1ccc(Nc2nccc(N(C)c3ccc4c(C)n(C)nc4c3)n2)cc1S(N)(=O)=O	95.8
Cc1cccc(-c2[nH]c(C(C)(C)C)nc2-c2ccc3c(c2)OCO3)n1	95.6

Block 2 — host: human; medium: microsomes or S9; concentration: 2 µM; time: 0.5 h
Compound	remaining compound
COc1ccc(F)c(-c2nc(COc3ccc(-n4cncn4)cc3)c(C)o2)c1	55.8%
Cc1cc(C)c2c(=O)n(CC(=O)NCc3ccc4c(c3)OCO4)c(=O)n(-c3ccccc3)c2n1	98.6%
O=C(c1ncccn1)N1C2CCC1Cn1c(nnc1-c1ccccc1)C2 (stereo not drawn)	> 100%
Cc1ccc(Nc2n[nH]c(N)c2S(=O)(=O)c2ccccc2)cc1	55.4%
Cc1cc(C)c(NS(=O)(=O)c2cnc(O)[nH]c2=O)c(C)c1	> 100%
c1nc(N2CCN(C3CCCCC3)CC2)c2nc[nH]c2n1	97.1%
Cc1cc(C)c(S(=O)(=O)NCc2nc(N)n(S(=O)(=O)c3c(C)cc(C)cc3C)n2)c(C)c1	3.93%
COc1ccc(/C=C/c2nc(-c3cccnc3)no2)cc1OC	42.6%
O=C1CCc2cc(C(=O)N3CCc4sc(Br)cc4C3)c(F)cc2N1	25.5%
COc1ccc(-c2cn3c(C(=O)N4CCN(C/C=C/c5ccccc5)CC4)csc3n2)cc1	0%
CCOC(=O)c1c(C)nn(-c2ncnc3c2c(C)c(C)n3CCc2ccccc2)c1N	> 100%

Block 3 — effect on: ligand displacement; concentration: 10 µM
Compound: O=C(NCc1ncc(C(F)(F)F)cc1Cl)c1ccc2c(c1)C1(CCS(=O)(=O)CC1)[C@@H](C1CC1)N2S(=O)(=O)c1ccc(F)cc1
target	inhibition [%]
DRD4 (Homo sapiens, UniProt P21917)	-5.22
ADRA1B (Homo sapiens, UniProt P35368)	-8.58
TMEM97 (Homo sapiens, UniProt Q5BJF2)	52.7
SIGMAR1 (Homo sapiens, UniProt Q99720)	37.6
HRH1 (Homo sapiens, UniProt P35367)	8.01
HTR6 (Homo sapiens, UniProt P50406)	-11.2
CHRM2 (Homo sapiens, UniProt P08172)	12.5
ADRA2A (Homo sapiens, UniProt P08913)	6.57
HTR7 (Homo sapiens, UniProt P34969)	-4.83

Block 4 — cell line: HaCaT; concentration: 100 µM; time: 36 h
Structure (SMILES)	viability
Cc1ccc([C@@H]2O[C@H](CO)[C@@H](O)[C@H](O)[C@H]2O)cc1Cc1ccc(-c2ccc(F)cc2)s1	6.2%
CC(C)NCC(O)COc1cccc2[nH]c3ccccc3c12 (stereo not drawn)	6.29%
Cc1cccc(C)c1OCC(C)N (stereo not drawn)	53.8%
CN1CCC[C@@H]1Cc1c[nH]c2ccc(CCS(=O)(=O)c3ccccc3)cc12	52.2%
CC(C)c1ccc2oc3nc(N)c(C(=O)O)cc3c(=O)c2c1	84.9%
O=C1c2cccc(O)c2C(=O)c2c(O)cc(CO)cc21	57.7%
Oc1c(I)cc(I)c2cccnc12	10.4%

Excerpt of the above (block 1):
SMILES	remaining activity [%]
Nc1ncnc2n[nH]c(Nc3ccc(F)cc3)c12	97.9
O=C(CCCc1ccc(-c2ccccc2F)cc1)Nc1ccc(O)cc1	92.7
CN(C)c1ccc(C=C2C(=O)Nc3ccccc32)cc1	99.8
Oc1ccc(-c2nc(-c3ccncc3)c(-c3ccc(F)cc3)[nH]2)cc1	99.4
O=c1c2ccccc2[nH]c(=S)n1CCN1CCC(=C(c2ccc(F)cc2)c2ccc(F)cc2)CC1	97
N#CC(C#N)=C(N)/C(C#N)=C/c1ccc(O)cc1	97.9
